Measured values gathered from unrelated publications.
Every numbered part comes from another study and shows a few of its results, in no order.

Series 1 — technique: RNA Bind-n-Seq; form: RNA; medium: in vitro; concentration: 200 nM; setting: whole 134-nt RNA, ends assumed; added: 150 mM LiCl; reference: input library; direction: higher = stronger binding; library: 7-deaza-guanosine replaces G
Target: Ras GTPase-activating protein-binding protein 1, full length (G3BP1, Homo sapiens, UniProt Q13283)
Sequence of UniProt Q13283 (whole entry, looked up): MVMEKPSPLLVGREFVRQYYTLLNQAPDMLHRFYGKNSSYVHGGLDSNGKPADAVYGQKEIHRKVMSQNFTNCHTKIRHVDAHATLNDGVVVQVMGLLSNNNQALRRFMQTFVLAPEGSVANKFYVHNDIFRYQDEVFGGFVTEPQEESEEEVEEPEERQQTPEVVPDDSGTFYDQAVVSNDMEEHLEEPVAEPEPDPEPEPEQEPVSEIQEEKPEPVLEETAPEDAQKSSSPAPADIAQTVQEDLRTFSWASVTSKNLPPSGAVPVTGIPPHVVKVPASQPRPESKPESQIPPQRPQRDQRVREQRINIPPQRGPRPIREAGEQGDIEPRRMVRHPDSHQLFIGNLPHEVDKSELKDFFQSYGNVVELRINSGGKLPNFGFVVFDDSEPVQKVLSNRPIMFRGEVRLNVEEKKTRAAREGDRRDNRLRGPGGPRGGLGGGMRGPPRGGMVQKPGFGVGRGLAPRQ
Oligonucleotide	log2 enrichment
GGGAGUUCUACAGUCCGACGAUCUGGCCCAGGUGGCAUGCGGGGAGGAAGAGGUGGCCUCAUGGAUCGUGGUGGUCCCGGUGGAAUGUUCAGAGGUGGCCGUGGUGGAGACAGUGGAAUUCUCGGGUGUCAAGG	0.0856
GGGAGUUCUACAGUCCGACGAUCCUGUGCUACACAUCGUAUGUACCGAAUCGGGGCCCCCCGGGGCCCCCCGGGCCCCCCGGGGAAAGUAUUAUGUUACGCCGUUCGGAUCUGUGGAAUUCUCGGGUGUCAAGG	-1.77
GGGAGUUCUACAGUCCGACGAUCUUCCUCAAGUCCUGUGCUACACAUCGUAUGUACCGAAUCGGAGGAGGUGGAAAGUAUUAUGUUACGCCGUUCGGAUCUGCACUUCCAGCAUGGAAUUCUCGGGUGUCAAGG	-2.24

Series 2 — technique: protein binding microarray; form: double-stranded DNA, one strand shown; medium: in vitro; concentration: not given; reference: not given; direction: higher = stronger binding
Target: Histone acetyltransferase KAT6A, winged helix 2, GST fusion (KAT6A, Homo sapiens, UniProt Q92794, residues 85-181)
Setting: 8-mer, flanks averaged, mean of 2 arrays, mostly near background
Residues (chain): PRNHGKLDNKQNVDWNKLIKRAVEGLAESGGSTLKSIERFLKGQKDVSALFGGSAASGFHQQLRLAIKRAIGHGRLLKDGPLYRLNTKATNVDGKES
Oligonucleotide	E-score
AATCCACT	-0.0225
ATCACGAA	0.0406
AGAGCTTC	0.0482
CAAGCCCG	0.000715

Series 3 — technique: RNA Bind-n-Seq; form: RNA; medium: in vitro; concentration: 365 nM; reference: no-protein control; direction: higher = stronger binding
Target: RNA binding protein fox-1 homolog 2, RRM domain, GST-SBP tag (RBFOX2, Homo sapiens, UniProt O43251-10, residues 100-194)
Setting: natural RNA segment, single round, ends assumed
Residues (chain): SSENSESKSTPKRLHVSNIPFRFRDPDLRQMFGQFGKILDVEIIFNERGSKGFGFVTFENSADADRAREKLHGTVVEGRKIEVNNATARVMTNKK
Oligonucleotide	RBNS enrichment (R)
GGGAGUUCUACAGUCCGACGAUCAUAGACUCCACAGAGAAUGGUGCUUUGUCCAAGGAAACCUGAGUUUCUGAUUGCCCAGGAGCAGUCAGUAGUGAGGAUACUGAGAAAACUUCCUUCCCAGAGAAAAUGGAUGGAAUUCUCGGGUGCCAA	0.333
GGGAGUUCUACAGUCCGACGAUCAAAAAAAACACCCAUCCCUCAAAAAGGCCAAGGUCCCGUCCCCCUGUUGUCGGUGAUUUGUUUGUCUUUCUGAUAGGUUGAAAAUUGUGUAAUAAACUUGAUGACGCUGUUGGAAUUCUCGGGUGCCAA	0.27
GGGAGUUCUACAGUCCGACGAUCACCAAAAUUUUCCUUAUCCACAAUGUCCCUUCUGUCUCUUCCACUUUACAGUGGACUCGGCCACUGUGCAUAGGCUUCUCUGCUCUCCAUCAAAUCACUUCCACUUUCCUUGGAAUUCUCGGGUGCCAA	0.943
GGGAGUUCUACAGUCCGACGAUCUGUGGCUGAGGCUGUCCCCAGAGAGGAUGGCAGCAGGUAUUGGGUCCUCAGCCUUCUGGCGGGAGCCCUGAGGCUGCGGACAAAGCCCUUUCAUCUGAGGACUUUCAUCUUGGAAUUCUCGGGUGCCAA	0.135

Single results of other studies
Substance	target	test	test system	setting	how to read	quantity	result
PhoQ, residues 284 288 289 292 302 303 ALAMYF	PhoP, residues 12 14 15 18 19 SPWRL (Escherichia coli, UniProt P23836)	Sort-seq, measured: YFP reporter	E. coli	PhoQ-PhoP variant library, added: 10 µM Mg2+	reference: high Mg2+ state, higher = stronger signaling	fold induction	14.1
